Measured values of several laboratories.
Chain of UniProt P30530 (whole entry, looked up): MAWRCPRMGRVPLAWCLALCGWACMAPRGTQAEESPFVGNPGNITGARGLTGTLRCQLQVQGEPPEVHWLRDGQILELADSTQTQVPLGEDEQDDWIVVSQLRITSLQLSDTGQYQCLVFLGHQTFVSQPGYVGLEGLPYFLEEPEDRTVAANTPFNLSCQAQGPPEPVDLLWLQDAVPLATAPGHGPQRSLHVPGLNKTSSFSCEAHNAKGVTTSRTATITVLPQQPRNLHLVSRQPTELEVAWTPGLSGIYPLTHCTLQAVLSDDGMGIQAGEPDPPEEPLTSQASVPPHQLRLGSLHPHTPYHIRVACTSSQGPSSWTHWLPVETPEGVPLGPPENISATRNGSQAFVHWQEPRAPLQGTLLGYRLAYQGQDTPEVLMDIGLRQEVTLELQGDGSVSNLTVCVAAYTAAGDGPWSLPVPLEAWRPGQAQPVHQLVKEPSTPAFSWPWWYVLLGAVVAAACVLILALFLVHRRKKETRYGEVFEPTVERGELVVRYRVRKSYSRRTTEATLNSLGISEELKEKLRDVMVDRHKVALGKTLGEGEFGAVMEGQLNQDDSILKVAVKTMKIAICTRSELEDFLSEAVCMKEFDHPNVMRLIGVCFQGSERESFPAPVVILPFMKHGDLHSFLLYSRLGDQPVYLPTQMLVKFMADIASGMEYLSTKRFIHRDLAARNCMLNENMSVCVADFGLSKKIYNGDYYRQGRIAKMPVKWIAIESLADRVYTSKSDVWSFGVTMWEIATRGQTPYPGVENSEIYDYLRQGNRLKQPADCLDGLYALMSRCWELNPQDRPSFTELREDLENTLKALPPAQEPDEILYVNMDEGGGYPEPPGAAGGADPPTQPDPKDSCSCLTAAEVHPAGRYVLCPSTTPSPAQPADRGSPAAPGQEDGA
Chain of UniProt Q8IYT8 (whole entry, looked up): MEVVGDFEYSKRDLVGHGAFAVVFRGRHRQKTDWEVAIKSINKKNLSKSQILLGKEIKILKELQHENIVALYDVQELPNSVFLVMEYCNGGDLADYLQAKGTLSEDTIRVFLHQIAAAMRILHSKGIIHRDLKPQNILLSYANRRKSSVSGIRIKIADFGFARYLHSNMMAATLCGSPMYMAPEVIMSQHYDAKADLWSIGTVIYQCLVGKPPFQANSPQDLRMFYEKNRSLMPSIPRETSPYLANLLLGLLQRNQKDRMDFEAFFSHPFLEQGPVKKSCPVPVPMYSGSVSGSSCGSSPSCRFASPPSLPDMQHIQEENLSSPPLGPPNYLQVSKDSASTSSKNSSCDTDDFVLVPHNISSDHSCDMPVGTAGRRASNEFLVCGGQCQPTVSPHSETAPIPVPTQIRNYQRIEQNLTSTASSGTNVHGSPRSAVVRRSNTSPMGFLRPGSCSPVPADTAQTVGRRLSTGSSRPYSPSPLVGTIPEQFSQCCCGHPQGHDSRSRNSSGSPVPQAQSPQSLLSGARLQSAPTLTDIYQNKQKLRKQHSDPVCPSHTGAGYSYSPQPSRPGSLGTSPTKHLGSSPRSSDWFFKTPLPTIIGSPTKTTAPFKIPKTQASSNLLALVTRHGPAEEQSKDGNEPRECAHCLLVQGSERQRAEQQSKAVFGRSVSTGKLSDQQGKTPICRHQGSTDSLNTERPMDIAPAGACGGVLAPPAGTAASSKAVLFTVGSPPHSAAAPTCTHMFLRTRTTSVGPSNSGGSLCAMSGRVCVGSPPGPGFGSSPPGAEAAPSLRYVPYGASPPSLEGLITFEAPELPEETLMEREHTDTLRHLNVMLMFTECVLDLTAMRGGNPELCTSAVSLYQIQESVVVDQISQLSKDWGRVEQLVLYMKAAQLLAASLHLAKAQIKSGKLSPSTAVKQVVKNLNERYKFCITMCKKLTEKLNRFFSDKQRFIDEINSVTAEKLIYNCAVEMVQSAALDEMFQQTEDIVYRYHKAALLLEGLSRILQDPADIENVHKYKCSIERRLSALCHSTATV
Chain of UniProt Q9HC98 (whole entry, looked up): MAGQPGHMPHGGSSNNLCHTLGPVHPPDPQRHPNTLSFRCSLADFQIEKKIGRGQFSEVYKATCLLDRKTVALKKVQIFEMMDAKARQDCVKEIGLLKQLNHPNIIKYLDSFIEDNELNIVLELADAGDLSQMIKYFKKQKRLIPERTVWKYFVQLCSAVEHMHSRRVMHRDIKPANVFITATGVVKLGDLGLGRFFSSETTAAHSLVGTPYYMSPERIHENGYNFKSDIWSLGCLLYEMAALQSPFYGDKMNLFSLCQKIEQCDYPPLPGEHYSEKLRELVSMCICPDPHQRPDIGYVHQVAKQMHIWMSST
Chain of UniProt O75582 (whole entry, looked up): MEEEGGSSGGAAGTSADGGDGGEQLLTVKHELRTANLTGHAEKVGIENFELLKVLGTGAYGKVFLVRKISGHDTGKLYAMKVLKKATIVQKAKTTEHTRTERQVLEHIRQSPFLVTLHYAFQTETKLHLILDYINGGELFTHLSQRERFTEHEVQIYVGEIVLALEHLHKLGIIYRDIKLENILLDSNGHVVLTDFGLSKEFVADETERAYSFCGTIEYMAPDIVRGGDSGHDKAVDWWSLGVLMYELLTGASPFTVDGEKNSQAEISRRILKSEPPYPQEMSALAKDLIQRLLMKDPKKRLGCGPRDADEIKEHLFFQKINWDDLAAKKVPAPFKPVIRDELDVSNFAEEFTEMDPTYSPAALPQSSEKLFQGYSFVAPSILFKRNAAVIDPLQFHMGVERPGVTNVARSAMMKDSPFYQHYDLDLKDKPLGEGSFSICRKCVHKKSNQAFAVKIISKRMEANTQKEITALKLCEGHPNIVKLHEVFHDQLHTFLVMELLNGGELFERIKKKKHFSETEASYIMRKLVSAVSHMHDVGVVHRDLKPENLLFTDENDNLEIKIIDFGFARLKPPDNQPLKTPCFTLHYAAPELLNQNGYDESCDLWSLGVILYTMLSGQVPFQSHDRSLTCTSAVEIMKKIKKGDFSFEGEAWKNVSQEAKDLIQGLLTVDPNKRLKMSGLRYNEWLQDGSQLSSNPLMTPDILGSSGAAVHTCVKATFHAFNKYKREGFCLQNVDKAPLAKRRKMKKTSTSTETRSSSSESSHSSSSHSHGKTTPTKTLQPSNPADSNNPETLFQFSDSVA
Chain of UniProt P07711 (whole entry, looked up): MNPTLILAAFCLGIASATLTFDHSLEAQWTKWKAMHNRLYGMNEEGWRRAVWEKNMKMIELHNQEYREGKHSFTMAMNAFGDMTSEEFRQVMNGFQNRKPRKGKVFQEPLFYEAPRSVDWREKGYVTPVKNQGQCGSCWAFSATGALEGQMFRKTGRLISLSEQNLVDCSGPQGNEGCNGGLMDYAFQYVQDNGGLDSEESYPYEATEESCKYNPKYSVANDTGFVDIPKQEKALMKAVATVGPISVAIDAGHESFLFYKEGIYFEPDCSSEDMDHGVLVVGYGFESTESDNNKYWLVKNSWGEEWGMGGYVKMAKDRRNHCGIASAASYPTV
Chain of UniProt Q7KZI7 (whole entry, looked up): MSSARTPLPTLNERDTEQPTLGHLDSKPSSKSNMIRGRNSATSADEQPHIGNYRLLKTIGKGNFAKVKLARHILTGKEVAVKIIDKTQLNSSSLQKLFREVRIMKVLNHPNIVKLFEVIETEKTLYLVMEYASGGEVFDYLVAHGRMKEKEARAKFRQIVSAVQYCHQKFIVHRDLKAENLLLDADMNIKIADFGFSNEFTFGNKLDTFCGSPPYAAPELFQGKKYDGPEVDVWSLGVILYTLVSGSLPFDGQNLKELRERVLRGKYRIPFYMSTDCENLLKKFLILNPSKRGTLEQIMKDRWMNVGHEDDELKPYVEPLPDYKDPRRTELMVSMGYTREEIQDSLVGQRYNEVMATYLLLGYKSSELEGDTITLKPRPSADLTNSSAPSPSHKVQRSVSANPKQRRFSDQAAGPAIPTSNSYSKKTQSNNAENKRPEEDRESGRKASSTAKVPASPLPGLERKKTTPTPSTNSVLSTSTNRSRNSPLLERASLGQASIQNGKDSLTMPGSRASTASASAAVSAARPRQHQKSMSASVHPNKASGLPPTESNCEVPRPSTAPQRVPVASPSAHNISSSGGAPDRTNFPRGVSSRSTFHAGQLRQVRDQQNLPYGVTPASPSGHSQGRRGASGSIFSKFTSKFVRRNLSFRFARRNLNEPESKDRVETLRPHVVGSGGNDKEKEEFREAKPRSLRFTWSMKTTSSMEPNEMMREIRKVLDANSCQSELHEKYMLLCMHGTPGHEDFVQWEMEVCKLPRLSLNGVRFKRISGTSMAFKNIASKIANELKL

`COc1c(/C=C/C(=O)c2ccc(O)cc2)ccc(O)c1CC=C(C)C` gave a remaining activity of 79.2% (Procathepsin L (CTSL, Homo sapiens, UniProt P07711); enzyme activity, inhibitor; 100 µM).
For `COc1cccc(-c2n[nH]c(SCc3ccccn3)n2)c1OC`, the concentration was 34.8 ng/mL (male Sprague-Dawley rat, plasma; oral, 100 mg/kg, 24 h, single dose).
`C1=C/COCc2cc(ccc2OCCN2CCCC2)Nc2nccc(n2)-c2cccc(c2)COC/1` gave a remaining binding of 75% (Epidermal growth factor receptor (EGFR, Homo sapiens, UniProt P00533); binding; 0.1 µM).
For `Nc1ccn([C@@H]2O[C@H](CO)[C@@H](O)C2(F)F)c(=O)n1`, the viability was 39.8% (MCF7; cell growth or viability, MTT; 2.5 µg/mL, 48 h).
With `CCCCC(=O)Nc1ccc(-c2ccc3ncn(CCC)c(=O)c3c2)cn1` the remaining binding was 100% (Ribosomal protein S6 kinase alpha-5, C-terminal kinase domain (RPS6KA5, Homo sapiens, UniProt O75582); binding, competition with immobilised ligand; 0.5 µM).
For `Nc1ncnc2occ(-c3ccc(NC(=O)Nc4cc(C(F)(F)F)ccc4F)cc3)c12`, the remaining signal was 0.25% (Tyrosine-protein kinase ABL1, phosphorylated (ABL1, Homo sapiens, UniProt P00519, Y253F); cell-free assay, inhibitor; 20 µM).
The remaining activity of `COc1cc(-c2cncc3c2CN(C)Cc2cc(N4CCNCC4)ccc2-3)cc(OC)c1OC` is reported as 118% (Serine/threonine-protein kinase MARK2 (MARK2, Homo sapiens, UniProt Q7KZI7); enzyme activity, inhibitor; 1 µM).
`CNc1ncc2c(/C=C/C(=O)N3CCC(OC)CC3)nn(Cc3cccc(C(F)(F)F)c3)c2n1` gave a remaining activity of 103% (Tyrosine-protein kinase receptor UFO (AXL, Homo sapiens, UniProt P30530); enzyme activity, inhibitor, radiometric; 1 µM).
With `O=c1nc(N2CCN(CC3CCCCC3)CC2)sc2c([N+](=O)[O-])cc(C(F)(F)F)cc12` the concentration was 811 ng/mL (CD-1 mouse, lung; oral, 100 mg/kg, 30 min).
For `CCN(O)N=Nc1ccc(S(=O)(=O)Nc2nccs2)cc1`, the inhibition was 45.2% (ABTS scavenging; 180 µg/mL).
For `Cc1cc([C@@H](C)Nc2ccccc2C(=O)O)c2nc(N3CCC(F)(F)CC3)c(C#N)c(=O)n2c1`, the remaining binding was 56% (Serine/threonine-protein kinase ULK2 (ULK2, Homo sapiens, UniProt Q8IYT8); binding, competition with immobilised ligand; 1 µM).
The remaining binding of `C=CC(=O)N1CCC(COCC(=O)N2CCN(c3nc(-c4cnc(N)nc4C(F)F)nc(N4CCOC[C@@H]4C)n3)CC2)CC1` is reported as 100% (Serine/threonine-protein kinase Nek6 (NEK6, Homo sapiens, UniProt Q9HC98); binding, competition with immobilised ligand; 1 µM).

Repeated from above:
`C1=C/COCc2cc(ccc2OCCN2CCCC2)Nc2nccc(n2)-c2cccc(c2)COC/1` gave a remaining binding of 75% (Epidermal growth factor receptor (EGFR, Homo sapiens, UniProt P00533); binding; 0.1 µM).
